Assay results of several laboratories.
Each numbered part is a random draw from the data of one study; scales do not carry over between parts.

Sample 1 — technique: protein-binding microarray; molecule type: double-stranded DNA, one strand shown; medium: in vitro; tested at: 250 nM; setting: 60-bp whole probe; with: salmon DNA 0.4 mg/ml; relative to: random background probes; reading: higher = stronger binding
Target: Interferon regulatory factor 7, full length, phosphomimetic (IRF7, Homo sapiens, UniProt Q92985, residues 1-503, S101K/S471D/S472D/S475D/S476D/S477D/S483D/S484D/S487D)
Chain of UniProt Q92985 (whole entry, unmodified, looked up): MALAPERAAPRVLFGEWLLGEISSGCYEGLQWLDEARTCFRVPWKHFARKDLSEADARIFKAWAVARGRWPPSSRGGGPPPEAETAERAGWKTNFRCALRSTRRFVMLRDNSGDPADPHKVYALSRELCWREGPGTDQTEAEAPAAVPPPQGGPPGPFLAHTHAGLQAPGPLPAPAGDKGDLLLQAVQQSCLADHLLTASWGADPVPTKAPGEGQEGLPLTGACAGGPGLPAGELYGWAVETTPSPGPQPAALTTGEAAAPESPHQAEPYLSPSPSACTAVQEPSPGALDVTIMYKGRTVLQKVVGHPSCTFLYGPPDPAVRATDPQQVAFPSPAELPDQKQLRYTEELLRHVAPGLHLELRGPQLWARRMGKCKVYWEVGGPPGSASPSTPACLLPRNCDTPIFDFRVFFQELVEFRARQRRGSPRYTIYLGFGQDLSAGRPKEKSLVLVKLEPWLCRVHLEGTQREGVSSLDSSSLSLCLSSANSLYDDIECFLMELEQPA
`GCCTAGCACGACGGTCTCGGTATCAGGACGTGCTAGGTCTTGATTCGCTTGACGCTGCTG` has a log fluorescence of 1.41 z-score.
`GCCTAGCACGACGGTATCGGACGGGGGACGTGCTAGGTCTTGATTCGCTTGACGCTGCTG` has a log fluorescence of 0.564 z-score.
`GCCTAGCACGACGGTTTCCTTATCCTGACGTGCTAGGTCTTGATTCGCTTGACGCTGCTG` has a log fluorescence of 3.2 z-score.

Sample 2 — technique: universal PBM; molecule type: double-stranded DNA, one strand shown; medium: in vitro; tested at: not given; reading: higher = stronger binding
Target: Sal-like protein 4, full length isoform B (SALL4, Homo sapiens, UniProt Q9UJQ4-2, residues 1-616)
Setting: 8-mer, flanks averaged, mean of replicates
`AGTATGTG` gave an E-score of 0.192.
For `CGCGGGAG`, the E-score was -0.301.
The E-score of `GCTCCACA` is reported as -0.291.
`ACAAGGGA` gave an E-score of 0.0359.

Sample 3 — technique: RNA Bind-n-Seq; molecule type: RNA; medium: in vitro; tested at: not given; relative to: input RNA pool; reading: higher = stronger binding
Target: RING finger protein unkempt homolog, zinc fingers 1-6, GST-SBP tag (UNK, Homo sapiens, UniProt Q9C0B0, residues 30-357)
Chain of UniProt Q9C0B0 (30-357, looked up): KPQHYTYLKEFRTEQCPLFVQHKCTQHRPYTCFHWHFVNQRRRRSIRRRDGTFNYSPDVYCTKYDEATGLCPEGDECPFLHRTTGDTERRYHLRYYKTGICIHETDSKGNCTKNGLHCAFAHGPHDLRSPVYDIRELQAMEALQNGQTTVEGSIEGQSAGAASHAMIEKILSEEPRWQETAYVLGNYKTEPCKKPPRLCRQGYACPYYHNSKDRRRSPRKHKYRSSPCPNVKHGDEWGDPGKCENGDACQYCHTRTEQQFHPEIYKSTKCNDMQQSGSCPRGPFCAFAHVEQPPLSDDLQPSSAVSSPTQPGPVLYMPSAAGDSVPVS
Setting: RNA with constant flanks, human and mouse sites, ends assumed
For `GGGAGUUCUACAGUCCGACGAUCGUUUUCCAUCUUUAUCAAUGCAUUCGUGUUGGUCUUGAUGUAUACUACCUGUUCCUAGUGUUAUUUUUACACGUCAUCUCACAGUAAUAAUAUCAGCAAUUCUUGCUGCAUUGAACAUAUCAACAGAGGAUUGAGCAUCA`, the bound/input enrichment was 0.265 ratio.
`GGGAGUUCUACAGUCCGACGAUCCAUCAAAAUGUUUCAUAUCAAGAUGAUUCUAAGCUAUCCCAGAGGAAGUUUACCAUUCUUAAUUUUAAUGAUUUGGUAGCAUCUGCUAUUCCUAUGACACCUGAGGAUCCUUCAUUUUGGCAACAGAGGAUUGAGCAUCA` has a bound/input enrichment of 0.146 ratio.
`GGGAGUUCUACAGUCCGACGAUCACCCCUGCUUUGUACAUGCUGUCUCCCUUCAGUCCUCUCAGAAGAAUAUCUAUUAAGAUUUUAGUGCACUCCUUAUUCAGCAUGCUAAUCAUGUGCACAAUUCUGACAAACUGCAUAUUCCAACAGAGGAUUGAGCAUCA` has a bound/input enrichment of 0.237 ratio.

Other studies, line by line
For `PhoQ, residues 284 288 289 292 302 303 NLGVHL`, the fold induction was 1.32 (PhoP, residues 12 14 15 18 19 LYHSL (Escherichia coli, UniProt P23836); Sort-seq, item: YFP reporter; E. coli; PhoQ-PhoP variant library, with: 10 µM Mg2+; relative to: high Mg2+ state, higher = stronger signaling).

Repeated from above (sample 2):
For `CGCGGGAG`, the E-score was -0.301.
